Published values of several laboratories.

| SMILES | host | sample | route | dose | time | notes | concentration |
| --- | --- | --- | --- | --- | --- | --- | --- |
| CC(C)n1ncc2c(C(=O)NCCN(C)C)cc(C3CC3)nc21 | female BALB/c mouse | plasma | intraperitoneal | 50 mg/kg | 30 min | – | 720 ng/mL |
| Cc1ncsc1-c1ccc(CNC(=O)[C@@H]2C[C@@H](O)CN2C(=O)[C@@H](NC(=O)COCC(C)(COCCOCCOCCNC(=O)C[C@@H]2N=C(c3ccc(Cl)cc3)c3c(sc(C)c3C)-n3c(C)nnc32)COCCOCCOCCNC(=O)C[C@@H]2N=C(c3ccc(Cl)cc3)c3c(sc(C)c3C)-n3c(C)nnc32)C(C)(C)C)cc1 | male C57BL/6 mouse | plasma | intravenous | 5 mg/kg | 1 h | single dose | 5000 ng/mL |
| CC(C)(O)c1ccc(N2Cc3c(ccnc3-c3ccc(F)cc3OCC(F)(F)F)C2=O)cc1 | male C57BL/6 mouse | brain | oral | 3 mg/kg | 6 h | – | 229 ng/g |
| O=C1CCC(N2Cc3cc(C(=O)O)c(F)cc3C2=O)C(=O)N1 (centres unmarked) | male CD-1 mouse | plasma | intravenous | 1 mg/kg | 4 h | – | 28.4 ng/mL |
| Cc1cc(C(=O)N[C@@H](CC(=O)NC(C)(C)C)C(=O)NCCNC(=O)c2cc(-c3ccccc3)ccn2)no1 | mouse | plasma | intravenous | 0.1 mg/kg | 5 min | – | 60.4 ng/mL |
| C=CC(=O)N1CC2C(=O)N(CCN(C)C)c3c(c4cc(Cl)c(-c5c(O)cccc5F)nc4n(-c4c(C)ccnc4C(C)C)c3=O)N2CC1C (centres unmarked) | mouse | CSF | oral | 30 mg/kg | 4 h | – | 1.06 ng/mL |
| [2H]C([2H])(N)C([2H])([2H])NC(=O)c1cc(C2CC2)nc2c1cnn2C(C)C | female BALB/c mouse | plasma | intraperitoneal | 50 mg/kg | 1 h | – | 2310 ng/mL |
| CC[C@H](C)/C=C/C=C/C=C/C(O)=C/C(=O)C(F)(F)F | female C57BL/6 mouse | plasma | oral | 25 mg/kg | 4 h | – | > 1000 nM |
| CC(C)n1ncc2c(C(=O)NC[C@@H](C)N)cc(C3CC3)nc21 | female BALB/c mouse | plasma | intraperitoneal | 30 mg/kg | 1 h | – | 1510 ng/mL |
| COc1cccc(C2CC(c3ccccc3Cl)Nc3nc(N)nn32)c1 (centres unmarked) | male CD-1 mouse | brain | intraperitoneal | 20 mg/kg | 3 h | single dose | 4000 nM |
| Cc1c2ccnc(C(=O)N[C@H](C)CN(C)C)c2cc2c3cc(OCCCN4CCN(C)CC4)ccc3n(C)c12 | male C57BL/6 mouse | brain | intraperitoneal | 10 mg/kg | 2 h | single dose | 240 nM |

A few entries again:
| SMILES | host | sample | route | dose | time | notes | concentration |
| --- | --- | --- | --- | --- | --- | --- | --- |
| CC(C)n1ncc2c(C(=O)NCCN(C)C)cc(C3CC3)nc21 | female BALB/c mouse | plasma | intraperitoneal | 50 mg/kg | 30 min | – | 720 ng/mL |
